Measurements collected from several papers.
Every numbered part comes from another study and shows a few of its results, in no order.
UniProt P27361, sequence (whole entry, looked up): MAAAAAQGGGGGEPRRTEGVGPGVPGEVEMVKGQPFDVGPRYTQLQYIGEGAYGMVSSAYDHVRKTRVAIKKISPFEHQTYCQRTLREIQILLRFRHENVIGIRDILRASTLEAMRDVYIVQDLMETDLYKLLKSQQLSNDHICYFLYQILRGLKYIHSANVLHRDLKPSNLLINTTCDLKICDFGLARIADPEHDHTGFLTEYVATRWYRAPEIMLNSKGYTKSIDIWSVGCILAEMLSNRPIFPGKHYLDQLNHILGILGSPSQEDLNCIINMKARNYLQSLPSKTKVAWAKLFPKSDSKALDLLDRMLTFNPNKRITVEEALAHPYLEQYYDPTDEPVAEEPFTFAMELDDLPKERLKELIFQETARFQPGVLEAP
UniProt P52333, sequence (whole entry, looked up): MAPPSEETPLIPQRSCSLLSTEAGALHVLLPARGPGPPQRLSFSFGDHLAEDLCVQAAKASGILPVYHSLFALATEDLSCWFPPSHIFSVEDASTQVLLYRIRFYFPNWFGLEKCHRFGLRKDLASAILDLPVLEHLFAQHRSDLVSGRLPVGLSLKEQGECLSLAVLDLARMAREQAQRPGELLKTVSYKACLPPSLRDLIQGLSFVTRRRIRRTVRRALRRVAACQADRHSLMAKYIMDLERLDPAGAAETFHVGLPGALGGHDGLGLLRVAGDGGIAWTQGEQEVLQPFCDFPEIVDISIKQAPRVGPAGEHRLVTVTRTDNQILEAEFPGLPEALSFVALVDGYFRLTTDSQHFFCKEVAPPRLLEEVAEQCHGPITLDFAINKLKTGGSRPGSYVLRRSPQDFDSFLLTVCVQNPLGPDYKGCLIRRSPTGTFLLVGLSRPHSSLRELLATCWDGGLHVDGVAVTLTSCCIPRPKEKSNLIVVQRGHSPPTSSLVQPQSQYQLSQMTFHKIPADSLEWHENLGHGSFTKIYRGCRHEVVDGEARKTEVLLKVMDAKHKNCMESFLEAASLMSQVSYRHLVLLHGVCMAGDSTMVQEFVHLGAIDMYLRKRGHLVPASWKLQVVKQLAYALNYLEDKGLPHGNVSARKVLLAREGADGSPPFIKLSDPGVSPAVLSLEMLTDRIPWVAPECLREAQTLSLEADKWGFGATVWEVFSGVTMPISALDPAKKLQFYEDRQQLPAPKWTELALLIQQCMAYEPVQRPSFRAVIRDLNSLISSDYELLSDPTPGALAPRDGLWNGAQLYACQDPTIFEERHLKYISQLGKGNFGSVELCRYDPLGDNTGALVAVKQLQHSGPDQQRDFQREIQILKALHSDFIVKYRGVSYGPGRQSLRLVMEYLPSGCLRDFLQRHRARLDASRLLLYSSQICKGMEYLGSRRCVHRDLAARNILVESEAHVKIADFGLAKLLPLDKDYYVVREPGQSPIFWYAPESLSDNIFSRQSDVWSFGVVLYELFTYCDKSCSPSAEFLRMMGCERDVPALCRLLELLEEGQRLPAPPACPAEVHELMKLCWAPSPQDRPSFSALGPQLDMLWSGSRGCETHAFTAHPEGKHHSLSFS
UniProt Q04912, sequence (whole entry, looked up): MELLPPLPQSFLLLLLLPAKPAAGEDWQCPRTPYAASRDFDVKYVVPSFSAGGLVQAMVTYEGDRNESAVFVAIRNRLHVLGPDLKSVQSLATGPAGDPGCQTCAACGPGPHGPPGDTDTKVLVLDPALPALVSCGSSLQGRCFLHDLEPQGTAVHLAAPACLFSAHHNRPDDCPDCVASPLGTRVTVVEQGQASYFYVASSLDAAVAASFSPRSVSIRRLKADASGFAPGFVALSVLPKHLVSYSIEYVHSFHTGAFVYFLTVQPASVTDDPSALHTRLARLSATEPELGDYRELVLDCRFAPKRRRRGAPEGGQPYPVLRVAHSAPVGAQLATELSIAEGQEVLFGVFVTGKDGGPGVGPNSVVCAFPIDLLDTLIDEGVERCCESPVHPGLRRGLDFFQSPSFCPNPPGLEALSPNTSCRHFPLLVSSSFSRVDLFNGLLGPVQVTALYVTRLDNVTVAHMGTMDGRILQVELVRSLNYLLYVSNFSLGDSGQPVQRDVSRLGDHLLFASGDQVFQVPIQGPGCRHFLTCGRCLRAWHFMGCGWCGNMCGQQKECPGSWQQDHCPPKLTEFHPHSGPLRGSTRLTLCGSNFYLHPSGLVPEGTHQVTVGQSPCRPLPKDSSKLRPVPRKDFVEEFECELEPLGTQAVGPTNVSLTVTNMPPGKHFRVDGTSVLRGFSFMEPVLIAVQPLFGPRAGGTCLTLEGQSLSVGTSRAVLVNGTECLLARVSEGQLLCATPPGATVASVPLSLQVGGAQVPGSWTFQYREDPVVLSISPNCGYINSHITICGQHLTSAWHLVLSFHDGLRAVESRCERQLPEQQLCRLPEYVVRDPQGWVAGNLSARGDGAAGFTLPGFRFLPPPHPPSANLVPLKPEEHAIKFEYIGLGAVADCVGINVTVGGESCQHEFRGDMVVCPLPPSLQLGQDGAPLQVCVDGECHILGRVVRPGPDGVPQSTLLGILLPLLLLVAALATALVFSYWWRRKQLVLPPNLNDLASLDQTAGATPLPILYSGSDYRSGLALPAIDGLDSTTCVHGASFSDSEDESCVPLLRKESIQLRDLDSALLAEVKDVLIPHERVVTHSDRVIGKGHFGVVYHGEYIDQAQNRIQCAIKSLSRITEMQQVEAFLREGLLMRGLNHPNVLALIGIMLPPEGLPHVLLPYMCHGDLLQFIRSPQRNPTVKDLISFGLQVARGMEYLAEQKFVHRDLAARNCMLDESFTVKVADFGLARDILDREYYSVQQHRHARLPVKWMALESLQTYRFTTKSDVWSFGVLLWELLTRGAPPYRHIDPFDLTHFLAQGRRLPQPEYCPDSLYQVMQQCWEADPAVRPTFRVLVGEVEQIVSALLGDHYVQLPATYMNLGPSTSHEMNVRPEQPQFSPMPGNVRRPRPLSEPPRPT
UniProt Q9HC98, sequence (whole entry, looked up): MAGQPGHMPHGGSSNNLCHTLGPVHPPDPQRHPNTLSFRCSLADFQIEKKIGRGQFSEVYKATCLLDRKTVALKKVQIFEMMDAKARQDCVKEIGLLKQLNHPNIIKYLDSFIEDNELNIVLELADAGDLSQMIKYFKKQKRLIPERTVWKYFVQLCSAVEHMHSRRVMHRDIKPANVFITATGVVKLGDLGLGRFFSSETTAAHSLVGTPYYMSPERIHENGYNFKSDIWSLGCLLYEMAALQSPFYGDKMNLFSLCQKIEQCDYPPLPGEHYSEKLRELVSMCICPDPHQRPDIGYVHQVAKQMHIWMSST
UniProt P78368, sequence (whole entry, looked up): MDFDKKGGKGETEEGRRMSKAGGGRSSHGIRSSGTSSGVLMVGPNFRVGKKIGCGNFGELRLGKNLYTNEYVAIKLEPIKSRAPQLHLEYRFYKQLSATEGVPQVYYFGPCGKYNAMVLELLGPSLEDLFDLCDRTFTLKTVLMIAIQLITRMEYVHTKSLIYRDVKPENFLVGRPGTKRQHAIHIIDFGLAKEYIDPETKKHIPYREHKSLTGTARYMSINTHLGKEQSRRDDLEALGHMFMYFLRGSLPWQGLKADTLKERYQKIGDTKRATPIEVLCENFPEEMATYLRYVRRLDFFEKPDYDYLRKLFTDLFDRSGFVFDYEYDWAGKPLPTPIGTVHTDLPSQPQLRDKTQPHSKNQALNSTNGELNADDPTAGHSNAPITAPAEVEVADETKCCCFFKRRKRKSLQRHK
UniProt Q15349, sequence (whole entry, looked up): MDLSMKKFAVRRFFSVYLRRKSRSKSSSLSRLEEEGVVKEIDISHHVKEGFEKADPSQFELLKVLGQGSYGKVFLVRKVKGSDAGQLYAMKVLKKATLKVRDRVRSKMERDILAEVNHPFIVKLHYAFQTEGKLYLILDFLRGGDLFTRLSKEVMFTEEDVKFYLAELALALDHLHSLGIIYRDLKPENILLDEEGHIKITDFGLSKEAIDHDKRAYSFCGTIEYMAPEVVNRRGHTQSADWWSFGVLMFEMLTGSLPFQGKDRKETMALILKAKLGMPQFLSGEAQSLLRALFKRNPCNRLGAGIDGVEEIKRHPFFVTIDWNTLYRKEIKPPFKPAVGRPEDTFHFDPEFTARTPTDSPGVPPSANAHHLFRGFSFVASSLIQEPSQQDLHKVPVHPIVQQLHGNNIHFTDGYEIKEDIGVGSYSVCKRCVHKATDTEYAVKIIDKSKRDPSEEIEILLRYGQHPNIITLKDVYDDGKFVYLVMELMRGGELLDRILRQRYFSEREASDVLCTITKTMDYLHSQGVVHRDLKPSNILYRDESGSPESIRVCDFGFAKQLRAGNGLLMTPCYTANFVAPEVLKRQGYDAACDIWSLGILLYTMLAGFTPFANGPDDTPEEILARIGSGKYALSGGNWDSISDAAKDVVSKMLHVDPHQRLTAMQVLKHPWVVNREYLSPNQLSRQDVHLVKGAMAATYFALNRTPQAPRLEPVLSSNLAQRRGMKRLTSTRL
UniProt P06239, sequence (whole entry, looked up): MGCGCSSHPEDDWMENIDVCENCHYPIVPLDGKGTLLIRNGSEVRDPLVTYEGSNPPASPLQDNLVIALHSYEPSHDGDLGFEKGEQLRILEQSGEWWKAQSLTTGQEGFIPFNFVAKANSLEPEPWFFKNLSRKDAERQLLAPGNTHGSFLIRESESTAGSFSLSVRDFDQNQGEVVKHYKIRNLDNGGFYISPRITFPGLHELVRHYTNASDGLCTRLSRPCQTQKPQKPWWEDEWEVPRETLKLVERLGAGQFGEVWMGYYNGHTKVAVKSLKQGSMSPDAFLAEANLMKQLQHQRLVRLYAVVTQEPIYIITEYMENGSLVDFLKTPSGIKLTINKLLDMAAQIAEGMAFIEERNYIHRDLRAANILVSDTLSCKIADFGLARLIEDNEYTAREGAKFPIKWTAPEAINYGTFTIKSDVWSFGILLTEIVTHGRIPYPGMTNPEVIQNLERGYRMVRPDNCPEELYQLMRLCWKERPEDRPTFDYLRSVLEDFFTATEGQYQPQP

Block 1 — Structure (SMILES): Oc1ccc(Nc2nc(-c3ccc(Cl)cc3)cs2)cc1; effect on: enzyme activity; mode: inhibitor; concentration: 0.5 µM; reference: control; quantity: remaining activity
target = Serine/threonine-protein kinase Nek6 (NEK6, Homo sapiens, UniProt Q9HC98); value = 95.2%
target = Tyrosine-protein kinase JAK3 (JAK3, Homo sapiens, UniProt P52333); value = 92.2%
target = Tyrosine-protein kinase ABL2 (ABL2, Homo sapiens, UniProt P42684); value = 93.4%
target = Ribosomal protein S6 kinase alpha-2 (RPS6KA2, Homo sapiens, UniProt Q15349); value = 101%
target = Mitogen-activated protein kinase 3 (MAPK3, Homo sapiens, UniProt P27361); value = 104%
target = Serine/threonine-protein kinase ULK2 (ULK2, Homo sapiens, UniProt Q8IYT8); value = 101%
target = Casein kinase I isoform gamma-2 (CSNK1G2, Homo sapiens, UniProt P78368); value = 91.8%
target = Angiopoietin-1 receptor (TEK, Homo sapiens, UniProt Q02763); value = 104%
target = Fibroblast growth factor receptor 1 (FGFR1, Homo sapiens, UniProt P11362); value = 82.5%
target = Dual specificity mitogen-activated protein kinase kinase 2 (MAP2K2, Homo sapiens, UniProt P36507); value = 109%
target = Tyrosine-protein kinase Lck (LCK, Homo sapiens, UniProt P06239); value = 99.8%
target = Serine/threonine-protein kinase Nek1 (NEK1, Homo sapiens, UniProt Q96PY6); value = 104%
target = Mitogen-activated protein kinase kinase kinase 14 (MAP3K14, Homo sapiens, UniProt Q99558); value = 102%
target = Macrophage-stimulating protein receptor (MST1R, Homo sapiens, UniProt Q04912); value = 92.5%

Block 2 — cell line: sample B colorectal tumour organoid; concentration: 1 µM; reference: DMSO; quantity: viability
SMILES = Cl.Cl.NC1(c2ccc(-c3nc4ccn5c(=O)[nH]nc5c4cc3-c3ccccc3)cc2)CCC1; value = 64.2%
SMILES = CCN(CC)S(=O)(=O)Nc1cccc(-c2ccc3c(NC(=O)C4CC4)n[nH]c3c2)c1; value = 102%
SMILES = CCCCNc1ncc(-c2ccc(CN3CCOCC3)cn2)c(NC2CCC(O)CC2)n1 (stereo not shown); value = 107%

Block 3 — method: RNA Bind-n-Seq; form: RNA; medium: in vitro; concentration: 200 nM; setting: whole 134-nt RNA, ends assumed; added: 150 mM LiCl; reference: input library; reading: higher = stronger binding; quantity: log2 enrichment; each molecule: 7-deaza-guanosine replaces G
Target: Fragile X messenger ribonucleoprotein 1, C-terminal low-complexity region (Fmr1, Mus musculus, UniProt P35922)
Oligonucleotide = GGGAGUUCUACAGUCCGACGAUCUGGCCCUGGUGGCAUGCGGGGAGGAAGAGGUGGCCUCAUGGAUCGUGGUGGUCCCGGUGGAAUGUCCAGAGGUGGCCGUGGUGGAGACAGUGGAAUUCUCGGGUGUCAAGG; value = -0.802
Oligonucleotide = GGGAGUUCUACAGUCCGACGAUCCACAGACAACACGAACCCACACAGACACAGAGGGAAGGGGUUGGGAUGGGGACAGGGUGCACAGCAGGGCGGGGUAGGACCCCAGCCCCUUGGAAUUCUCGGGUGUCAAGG; value = 0.199
Oligonucleotide = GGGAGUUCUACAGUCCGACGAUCAGAAAGCCCAGGAGGAACCACCUGCCAAGCUGCUGGAUGACCUUUUCCGAAAGACCAAGGCAGCUCCCUGCAUCUAUUGGCUCCCACUGAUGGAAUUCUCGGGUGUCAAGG; value = -0.177
Oligonucleotide = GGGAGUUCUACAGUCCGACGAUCUGGAGCUGAAGAGCCAAGAGGCUCCGAGUCUGCAGCAGCAGCCAGACCAGUACCUGGAGCCCCAGUCCCACAAGGAGCUUGGAUGUGCGGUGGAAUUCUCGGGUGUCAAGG; value = -1.64
Oligonucleotide = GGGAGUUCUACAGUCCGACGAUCGUCCUGUGCUACACAUCGUAUGUACCGAAUCGGGAAAAAAAGGGAGGGUUUUUUUGGGAAAGUAUUAUGUUACGCCGUUCGGAUCUGCACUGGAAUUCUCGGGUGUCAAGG; value = -1.49
Oligonucleotide = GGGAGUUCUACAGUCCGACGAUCUGGGAGGUGAAUUUUGUUUAUUUUUUUAGCUCAUUUCCAGGGGUGGGAAUUUUUUUUUAAUAUGUGUCAUGAAUAAAGUUGUUUUUGAAAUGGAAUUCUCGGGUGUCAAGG; value = -0.421
Oligonucleotide = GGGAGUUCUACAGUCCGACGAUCGUCCUGUGCUACACAUCGUAUGUACCGAAUCGGUUUUUUGGGUUUUUUGGGUUUUUUGGAAAGUAUUAUGUUACGCCGUUCGGAUCUGCAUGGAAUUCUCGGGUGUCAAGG; value = -1.3
Oligonucleotide = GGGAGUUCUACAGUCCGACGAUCUCCUGUGCUACACAUCGUAUGUACCGAAUCGGGGAAAAAAAGGGGAGGGGUUUUUGGGGAAAGUAUUAUGUUACGCCGUUCGGAUCUGCAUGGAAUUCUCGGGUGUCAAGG; value = 0.402

Other studies, line by line — cell line: HaCaT; concentration: 100 µM; time: 18 h
SMILES = C[N+]1(CCCCC[N+]2(C)CCCC2)CCCC1; viability = 107%
SMILES = COC(=O)N[C@H](C(=O)N1CCC[C@H]1c1nc(-c2ccc(-c3ccc(-c4c[nH]c([C@@H]5CCCN5C(=O)[C@@H](NC(=O)OC)C(C)C)n4)cc3)cc2)c[nH]1)C(C)C; viability = 32.1%
SMILES = CCC1(c2ccccc2)C(=O)NCNC1=O; viability = 114%

Excerpt of the above (block 1):
target = Ribosomal protein S6 kinase alpha-2 (RPS6KA2, Homo sapiens, UniProt Q15349); value = 101%
target = Mitogen-activated protein kinase 3 (MAPK3, Homo sapiens, UniProt P27361); value = 104%
target = Serine/threonine-protein kinase ULK2 (ULK2, Homo sapiens, UniProt Q8IYT8); value = 101%
target = Casein kinase I isoform gamma-2 (CSNK1G2, Homo sapiens, UniProt P78368); value = 91.8%
